Earlier results, collected from citations in different studies.
Numbered parts are unrelated; values within a part may stem from several laboratories. ± gives the spread as reported. ≈ marks a conversion by molar mass, not a printed value.
UniProt Q08210, sequence (whole entry, looked up): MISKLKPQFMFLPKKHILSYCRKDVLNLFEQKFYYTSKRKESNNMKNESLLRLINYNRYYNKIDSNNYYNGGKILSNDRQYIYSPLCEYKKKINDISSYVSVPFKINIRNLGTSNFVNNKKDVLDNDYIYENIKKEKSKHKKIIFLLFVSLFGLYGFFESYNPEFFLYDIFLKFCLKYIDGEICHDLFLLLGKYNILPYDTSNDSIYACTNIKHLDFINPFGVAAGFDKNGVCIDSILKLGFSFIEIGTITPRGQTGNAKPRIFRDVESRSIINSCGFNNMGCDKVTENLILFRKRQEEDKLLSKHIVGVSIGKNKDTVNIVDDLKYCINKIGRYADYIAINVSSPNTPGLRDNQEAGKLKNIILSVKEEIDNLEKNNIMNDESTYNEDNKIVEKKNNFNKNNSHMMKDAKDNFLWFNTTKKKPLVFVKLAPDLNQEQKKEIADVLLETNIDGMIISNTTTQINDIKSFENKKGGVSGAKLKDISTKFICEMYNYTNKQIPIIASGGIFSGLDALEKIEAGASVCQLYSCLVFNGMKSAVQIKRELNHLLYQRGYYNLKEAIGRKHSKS

Sample 1 — organism: Cryptosporidium parvum; technique: high-throughput screen; concentration: concentration not given
SMILES | activity
CN(C)CCC=C1c2ccccc2CCc2ccccc21 | inactive
CCc1ccc(CCOc2ccc(CC3SC(=O)NC3=O)cc2)nc1 (centres unmarked) | inactive
CC(C)(C(=O)O)c1ccc(C(O)CCCN2CCC(C(O)(c3ccccc3)c3ccccc3)CC2)cc1 (centres unmarked) | inactive
CCN(CC)CC1CCCCN1CC(=O)N1c2ccccc2C(=O)Nc2cccnc21 (centres unmarked) | inactive
N[C@@H](C(=O)N[C@@H]1C(=O)N2C(C(=O)O)=C(Cl)CS[C@H]12)c1ccccc1 | inactive
CCOC(=O)[C@H](CCc1ccccc1)N[C@@H](C)C(=O)N1[C@H](C(=O)O)C[C@@H]2CCC[C@@H]21 | inactive
CN(C)C(=O)Oc1ccc[n+](C)c1 | inactive
CCCCNC(=O)NS(=O)(=O)c1ccc(C)cc1 | inactive
CC1=NS(=O)(=O)c2cc(Cl)ccc2N1 | inactive
CC(=O)OCC(=O)[C@@]1(O)CC[C@H]2[C@@H]3CCC4=CC(=O)CC[C@]4(C)[C@H]3C(=O)C[C@@]21C | inactive
CC(=O)OCC(=O)[C@@]12OC3(CCCC3)O[C@@H]1C[C@H]1[C@@H]3CCC4=CC(=O)C=C[C@]4(C)[C@@]3(F)[C@@H](O)C[C@@]12C | inactive
Cc1[nH]cnc1CN1CCc2c(c3ccccc3n2C)C1=O | inactive
CC(C(O)c1ccc(O)cc1)N1CCC(Cc2ccccc2)CC1 (centres unmarked) | inactive
COc1cc(NC(C)CCCN)c2ncccc2c1.O=P(O)(O)O.O=P(O)(O)O (centres unmarked) | inactive
CC1(C)S[C@@H]2[C@H](NC(=O)COc3ccccc3)C(=O)N2[C@H]1C(=O)O | inactive
CC1=C(CC(=O)O)c2cc(F)ccc2/C1=C\c1ccc([S+](C)[O-])cc1 (centres unmarked) | inactive
C[N+]1(C)CCC(OC(=O)C(O)(c2ccccc2)C2CCCC2)C1 (centres unmarked) | inactive
CN(CCO)CC(O)Cn1cnc2c1c(=O)n(C)c(=O)n2C.O=C(O)c1cccnc1 (centres unmarked) | inactive
CC(C)(C)NC(=O)[C@H]1CC[C@H]2[C@@H]3CC[C@H]4NC(=O)C=C[C@]4(C)[C@H]3CC[C@]12C | inactive
Cc1c(O)cccc1C(=O)N[C@@H](CSc1ccccc1)[C@H](O)CN1C[C@H]2CCCC[C@H]2C[C@H]1C(=O)NC(C)(C)C | inactive
O=C1NC(=O)N(C2CC(O)C(CO)O2)CC1F (centres unmarked) | inactive
CN1CCN(C2=Nc3cc(F)ccc3Cc3ccccc32)CC1 | inactive
CC(=O)SCC(Cc1ccccc1)C(=O)NCC(=O)OCc1ccccc1 (centres unmarked) | inactive
CC(COc1ccccc1)NC(C)C(O)c1ccc(O)cc1 (centres unmarked) | inactive
Cc1ncc([N+](=O)[O-])n1CCO | inactive

Other studies, line by line
Compound | tested on | test | system | setting | endpoint | value
COC(=O)C1=C(C)NC(C)=C(C(=O)OC)C1c1c(-c2ccccc2OC)nc2sccn12 |  | decrease in atrial rate | guinea pig right atrium |  | EC50 | 4890 nM
CCCCC[C@H](O)CC[C@@H]1[C@H]2Cc3cccc(OCC(=O)O)c3C[C@H]2C[C@H]1O |  |  | non-Japanese healthy adults | 36 µg | AUC(0-inf) | 0.61 ± 0.18 ng·h/mL
Cc1cc(Nc2ccc(C(C)(C)C)c(F)c2)n2ncnc2n1 | Dihydroorotate dehydrogenase (quinone), mitochondrial (PFF0160c, Plasmodium falciparum, UniProt Q08210) | enzyme activity, inhibitor |  |  | IC50 | 64 ± 3.5 nM
CO[C@H]1C[C@@H]2CC[C@@H](C)[C@@](O)(O2)C(=O)C(=O)N2CCCC[C@H]2C(=O)O[C@H]([C@H](C)C[C@@H]2CC[C@@H](OC(=O)NCCOCCOCCOCCOCCOCCOCCOCCOCCC(=O)N3CCc4cc(Cn5nc(-c6ccc7oc(N)nc7c6)c6c(N)ncnc65)ccc4C3)[C@H](OC)C2)C[C@@H](O)[C@H](C)/C=C(\C)[C@@H](O)[C@@H](OC)C(=O)[C@H](C)C[C@H](C)/C=C/C=C/C=C/1C | FKBP12 | binding |  |  | Kd | 65 nM
C[C@@H]1C[C@H]2[C@@H]3CCC4=CC(=O)C=C[C@]4(C)[C@@]3(F)[C@@H](O)C[C@]2(C)[C@@]1(O)C(=O)CO |  |  |  |  | water solubility | 89 µg/mL (≈ 227 µM)
CC(Nc1nc(N2CCCC2)nc2ccccc12)c1ccccc1 (centres unmarked) | HeLa |  |  | 100 µM | toxicity | toxic
O=C(CCc1ccc(O)cc1)c1c(O)cc(O)cc1O | H1299 | cytotoxicity, MTT |  |  | IC50 | 54000 nM
CO[C@H]1/C=C/O[C@@]2(C)Oc3c(C)c(O)c4c(O)c(c(/C=N/N5CCN(C)CC5)c(O)c4c3C2=O)NC(=O)/C(C)=C\C=C\[C@H](C)[C@H](O)[C@@H](C)[C@@H](O)[C@@H](C)[C@H](OC(C)=O)[C@@H]1C | P-glycoprotein (MDR1) | inhibitor |  |  | Ki | 4000 to 23000 nM
O=C(O)C1=CCCN(CCON=C(c2ccccc2)c2ccccc2)C1 | Sodium- and chloride-dependent GABA transporter 1 (Slc6a1, Rattus norvegicus, UniProt P23978) | inhibitor |  | historical reference value | IC50 | 200 nM
O=C(NC[C@H]1CN(c2ccc(N3CCOCC3=O)cc2)C(=O)O1)c1ccc(Cl)s1 |  |  | healthy human subjects | intravenous | clearance | ~10 L/h
FC(F)(F)c1ccc2c(c1)nc(-c1cccnc1)n2C1CC1 | CYP11B2 (human) | cellular activity |  |  | IC50 | > 10000 nM
CCCCOc1cc(C(=O)NCCN(CC)CC)c2ccccc2n1 |  |  |  |  | logP | > 3
C[C@H](Cn1cnc2c(N)ncnc21)OCP(=O)(O)O |  |  | plasma |  | plasma fraction unbound | 0.93
CC(C)n1nc(-c2ccc3oc(N)nc3c2)c2c(N)ncnc21 |  |  | patients | dose not given, dose-expansion phase | grade ≥3 hyperglycemia incidence | 16%
N[C@@H](CCC(=O)O)C(=O)O | kainate receptor | binding |  | historical reference data | Hill coefficient | 0.8
COC(=O)C1=C(C)NC(C)=C(C(=O)OC)C1c1c(-c2cc(OC)ccc2OC)nc2sc(C)cn12 |  | negative inotropic effect | guinea pig, isolated left atrium |  | EC50 | 1430 nM
O=C(Oc1cccc(F)c1OC(=O)c1cccc(O)c1)c1cccc(O)c1 | H1299 | cytotoxicity, MTT |  |  | IC50 | 20400 nM
OC(Cn1cncn1)(Cn1cncn1)c1ccc(F)cc1F | CYP3A5 | enzyme activity, inhibitor |  |  | Ki | 53000 to 148000 nM
C[C@@]1(Cc2ccc(C#N)cc2)C(=O)N(c2cc(Cl)cc(Cl)c2)c2ncc(C(=O)NC3(c4nc(C5CCC5)no4)CC3)n21 | ITGAL | biochemical |  |  | Kd | > 1000 nM
CNC(C)C1CCC(N)C(OC2C(N)CC(N)C(OC3OCC(C)(O)C(NC)C3O)C2O)O1 (centres unmarked) |  |  | human |  | half-life | 1.92 h
CN(C(=O)C(C)(C)c1cc(C(F)(F)F)cc(C(F)(F)F)c1)c1cnc(N2C[C@H]3COCCN3C[C@H]2CO)cc1-c1ccc(F)cc1[14CH3] |  |  | plasma |  | unbound fraction | < 0.5%
O=c1nc(-c2ccccn2)sc2ccccc12 | MIF | binding |  |  | Kd | 68.6 nM
CC(=O)O[C@@H]1CC[C@@]2(C)[C@@H](CC[C@]3(C)[C@@H]2C(=O)C=C2[C@@H]4[C@@H](C)[C@H](C)CC[C@]4(C)CC[C@]23C)[C@@]1(C)C(=O)O |  |  |  | concentration not given | logP | 3.3
Cc1cc(-n2nc(Cc3cc(F)cc(C(F)(F)F)c3)nc2C)ccc1C(N)=O | GPR52 human | cellular activity |  |  | EC50 | 93 nM
N[C@@H](C[18F])C(=O)O |  |  | tumour-bearing rat, bone | 30 min | tissue uptake | > 4 %ID/g

Some of these lines once more (other studies, line by line):
Compound | tested on | test | system | setting | endpoint | value
C[C@H](Cn1cnc2c(N)ncnc21)OCP(=O)(O)O |  |  | plasma |  | plasma fraction unbound | 0.93
CC(Nc1nc(N2CCCC2)nc2ccccc12)c1ccccc1 (centres unmarked) | HeLa |  |  | 100 µM | toxicity | toxic
CO[C@H]1C[C@@H]2CC[C@@H](C)[C@@](O)(O2)C(=O)C(=O)N2CCCC[C@H]2C(=O)O[C@H]([C@H](C)C[C@@H]2CC[C@@H](OC(=O)NCCOCCOCCOCCOCCOCCOCCOCCOCCC(=O)N3CCc4cc(Cn5nc(-c6ccc7oc(N)nc7c6)c6c(N)ncnc65)ccc4C3)[C@H](OC)C2)C[C@@H](O)[C@H](C)/C=C(\C)[C@@H](O)[C@@H](OC)C(=O)[C@H](C)C[C@H](C)/C=C/C=C/C=C/1C | FKBP12 | binding |  |  | Kd | 65 nM
O=c1nc(-c2ccccn2)sc2ccccc12 | MIF | binding |  |  | Kd | 68.6 nM
COC(=O)C1=C(C)NC(C)=C(C(=O)OC)C1c1c(-c2cc(OC)ccc2OC)nc2sc(C)cn12 |  | negative inotropic effect | guinea pig, isolated left atrium |  | EC50 | 1430 nM
C[C@@]1(Cc2ccc(C#N)cc2)C(=O)N(c2cc(Cl)cc(Cl)c2)c2ncc(C(=O)NC3(c4nc(C5CCC5)no4)CC3)n21 | ITGAL | biochemical |  |  | Kd | > 1000 nM
COC(=O)C1=C(C)NC(C)=C(C(=O)OC)C1c1c(-c2ccccc2OC)nc2sccn12 |  | decrease in atrial rate | guinea pig right atrium |  | EC50 | 4890 nM
OC(Cn1cncn1)(Cn1cncn1)c1ccc(F)cc1F | CYP3A5 | enzyme activity, inhibitor |  |  | Ki | 53000 to 148000 nM
